Published values pooled from the literature.
A part holds a random share of what one study measured.

Set 1
Target: RNA binding protein fox-1 homolog 2, RRM domain, GST-SBP tag (RBFOX2, Homo sapiens, UniProt O43251-10, residues 100-194)
Method: RNA Bind-n-Seq
Molecule type: RNA
Sample: in vitro
Concentration: 365 nM
Setting: natural RNA segment, single round, ends assumed
Baseline: no-protein control
Direction: higher = stronger binding
Endpoint: RBNS enrichment (R)
Constant ends, left off below: GGGAGUUCUACAGUCCGACGAUC … UGGAAUUCUCGGGUGCCAA
Residues (chain): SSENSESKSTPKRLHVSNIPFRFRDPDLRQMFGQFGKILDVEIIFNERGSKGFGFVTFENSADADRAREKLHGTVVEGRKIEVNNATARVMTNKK
UUACUAUGCCUCAAGCCCAGUUUGCUUUUGCCGCAGCGAUGGGGCCAGUCUCAUUCCUCCCCAGGAGUGAAACUUGCUUCAGCUGAAAAGGUUGGGUGCAUUGUCAGUAA: 0.258
CCCCAGUAAGAAGCCAAGGUACAACUCAUUGUACCUACGAGGUACAAACUCAUUUGUAGAAACAAAGUAACUAGAUAUUCCUAUUGAAAUAAGAAUAGAUAUAUUGGUGG: 0.343
GAAGUCUCUAAUAUAUCAUUUGUCUUUUUUCCAGUGAGGUAAAAUAAGGCAUAAAUGCAGGUAAUUAUUCCCAGCUGACCUAAAGUCAAUAAAACAUUCUGUUUAAGUGU: 0.332
GAAAUAUAGGGGAGGUGGACUGUAAGGGAUAUAUAACCAGUGUGAAGAACUGCUUCAUAAAAUAUGUAUUAAGUAUUGUAUUUCCCUCUUAGCAGUUGAAUCCAAACCAG: 0.424
UCAGUUAACUUUUUCAGCUAUUUUUAAAGUUUGUGAAUGGAGUGUUAUUUUGGACAUUCUUAAAUAUGAAUUCUCCAAAGGCAUUUAGCCUUGACUUAAUAUUAAAUCCU: 0.59
GAACGACAUAAAGAAAGCUCUUCAAUCAAAUGAUUACUUGAUAAUUGAGACAUCACAUUAUUCAUCCUGUGUCCAAGACUCAGAUAUUCUGCCCCAGUCAAAAUCAUCUU: 0.328
GCACUGUUGAAUAUGGGUAUCGGCUUUCUUUUUCACUUUGACUCUUAACAUUAUCAGUCAACUUCCACAUUAAUGAAAGUUGACCAUAGUUAUUUCCAAAUAAAAAGAAA: 0.379
GGCCUUCUUACUAACCUUGGACCGUGAUUGAGCCCAAGAAACCAGGGACUUACGCAUUUGGCCAAUGUCAAAAGAACAGAACUUUGCCCACUGCACACUUGCUGUGUACA: 0.505

Set 2
Target: Ras GTPase-activating protein-binding protein 1, full length (G3BP1, Homo sapiens, UniProt Q13283)
Chain of UniProt Q13283 (whole entry, looked up): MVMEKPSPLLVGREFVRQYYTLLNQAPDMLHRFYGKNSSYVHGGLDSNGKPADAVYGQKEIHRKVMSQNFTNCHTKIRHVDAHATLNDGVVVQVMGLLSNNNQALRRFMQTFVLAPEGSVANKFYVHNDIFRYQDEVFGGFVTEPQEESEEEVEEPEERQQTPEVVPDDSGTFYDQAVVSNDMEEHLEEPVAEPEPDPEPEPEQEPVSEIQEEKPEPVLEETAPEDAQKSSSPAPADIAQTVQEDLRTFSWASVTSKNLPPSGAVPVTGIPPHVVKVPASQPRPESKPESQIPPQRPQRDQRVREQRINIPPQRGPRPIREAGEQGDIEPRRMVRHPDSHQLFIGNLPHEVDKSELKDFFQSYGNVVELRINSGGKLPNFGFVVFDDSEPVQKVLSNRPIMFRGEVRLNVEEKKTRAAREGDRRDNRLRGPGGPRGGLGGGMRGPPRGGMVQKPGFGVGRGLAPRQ
Method: RNA Bind-n-Seq
Molecule type: RNA
Sample: in vitro
Concentration: 200 nM
Setting: whole 134-nt RNA, ends assumed
With: 150 mM LiCl
Baseline: input library
Direction: higher = stronger binding
Endpoint: log2 enrichment
All molecules: 7-deaza-guanosine replaces G
Constant ends, left off below: GGGAGUUCUACAGUCCGACGAUC … UGGAAUUCUCGGGUGUCAAGG
UCCUGUGCUACACAUCGUAUGUACCGAAUCGGGAAAAAAGGGAAAAAAGGGGAAAAAAGGAAAGUAUUAUGUUACGCCGUUCGGAUCUGC: -0.267
UGGCCCUGGUGGCAUGCGGGGAGGAAGAGGUGGCCUCAUGGAUCGUGGUGGUCCCGGUGGAAUGUUCAGAGGUGGCCGUGGAGGAGACAG: -0.0197
UCCUGUGCUACACAUCGUAUGUACCGAAUCGGGGUGGGGUUUUUGGGGUUUUUUUGGGGAAAGUAUUAUGUUACGCCGUUCGGAUCUGCA: 0.335
UGGCCCUGGUGGCAUGCGGGGAGGAAGAGGUGGCCUCAUUGAUCGUGGUGGUCCCGGUGGAAUGUUCAGAGGUGGCCGUGGUGGAGACAG: 0.353
UGGCCCUGGUGGCAUGCGGGGAGGAAGAGGUGGCCUCAUGGAUCGUGGUGGUCCCGGAGGAAUGUUCAGAGGUGGCCGUGGUGGAGACAG: 0.0833
UAACUUUAGAGGAGGAUCGGAUGGAUAUGGCAGUGGACGUGGAUUUGGGGAUGGCUAUAAUGGGUAUGGAGGAGGACCUGGAGGUGGCAA: 0.233
GUCCUGUGCUACACAUCGUAUGUACCGAAUCGGGUUUUUUGGUUUUUUGGUUUUUUGGAAAGUAUUAUGUUACGCCGUUCGGAUCUGCAC: -1.18
AAGUCCUGUGCUACACAUCGUAUGUACCGAAUCGGAAAAGGAAAAGGGGAAAAGGGAAAGUAUUAUGUUACGCCGUUCGGAUCUGCACUU: -0.249

Set 3
Target: Prothrombin, mature alpha-thrombin (F2, Homo sapiens, UniProt P00734)
Method: aptamer microarray, sandwich
Molecule type: DNA with 2'F-ANA
Sample: in vitro
Concentration: 200 nM
Setting: whole 15-mer aptamer, many near background
With: Cy3 exosite-II aptamer, 400 nM
Direction: higher = stronger binding
Endpoint: mean fluorescence intensity
Sequence: GGTTGGTGTGGTTGG
2'F-ANA at 2 3 6 7 8 10 12 14: 296 a.u.
2'F-ANA at 2 3 5 6 8 9 10 11 13: 57.5 a.u.
2'F-ANA at 1 3 6 11 12 13 15: 378 a.u.
2'F-ANA at 1 6 7 8 9 11 12 15: 290 a.u.
2'F-ANA at 4 5 7 8 9 10 14: 58.2 a.u.
2'F-ANA at 1 7 10 12 13 15: 73.1 a.u.
2'F-ANA at 1 3 4 5 6 10 12 13 14 15: 48.7 a.u.
2'F-ANA at 1 2 4 5 7 9 10: 46.4 a.u.
2'F-ANA at 3 4 6 7 8 10 11: 240 a.u.
2'F-ANA at 3 6 7 9 11 13 14: 473 a.u.
2'F-ANA at 1 5 6 8 11 12 15: 90.7 a.u.
2'F-ANA at 3 4 7 8 13: 617 a.u.
2'F-ANA at 2 3 7 9 10 12 13 15: 408 a.u.
2'F-ANA at 1 2 5 7 10 12 13: 49.2 a.u.
2'F-ANA at 1 2 3 4 5 6 8 11 12 13: 86.5 a.u.
2'F-ANA at 1 2 5 6 7 9 12 14: 52 a.u.
2'F-ANA at 2 4 6 10 13: 71.1 a.u.
2'F-ANA at 2 3 6 7 9 10 12 14: 243 a.u.
2'F-ANA at 1 3 6 9 11 13 14 15: 73.7 a.u.
2'F-ANA at 1 3 4 5 6 10 11 14 15: 57.4 a.u.
2'F-ANA at 1 3 5 10 12 14 15: 45.9 a.u.

Set 4
Target: Histone acetyltransferase KAT6A, winged helix 2, GST fusion (KAT6A, Homo sapiens, UniProt Q92794, residues 85-181)
Method: protein binding microarray
Molecule type: double-stranded DNA, one strand shown
Sample: in vitro
Concentration: not given
Setting: 8-mer, flanks averaged, mean of 2 arrays, mostly near background
Baseline: not given
Direction: higher = stronger binding
Endpoint: E-score
Target sequence (chain): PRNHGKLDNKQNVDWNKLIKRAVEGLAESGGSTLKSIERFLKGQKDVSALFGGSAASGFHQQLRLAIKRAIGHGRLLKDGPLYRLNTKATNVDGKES
AAGATGTG: -0.0699
ATAGGATG: -0.173
GTAATTGA: 0.00893
AACAGGAC: -0.0838
CTTAGTCC: 0.0198
TAAAGAAA: 0.16
CTCTAACC: -0.196
GACGCGGA: 0.203
CCAGCCCG: 0.0388
CAAATAAG: -0.1
AGTATTAA: -0.0153
AACACCCT: -0.00239
AACACTAC: -0.0669
GCTAATAA: -0.0676
TACTGAAA: 0.129
AATAGCGA: -0.0797
CAGTCAGA: -0.0591
ATAGTGAA: 0.0735
AATGCCCT: -0.0733
ACGGATCG: -0.0495
GCTGTTTA: -0.00038
GTCGCAGA: 0.179
TAGTGGCA: 0.0164
CACCCTAA: -0.124
GCCATTGA: 0.0238

Excerpt of the above (set 4):
CTTAGTCC: 0.0198
TAAAGAAA: 0.16
CTCTAACC: -0.196
GACGCGGA: 0.203
CCAGCCCG: 0.0388
CAAATAAG: -0.1
AGTATTAA: -0.0153
AACACCCT: -0.00239
AACACTAC: -0.0669
GCTAATAA: -0.0676
